Experimental data of several laboratories.
Numbered parts are unrelated; each lists some results of a single study.

Sample 1
Target: PABPC1L2, full length, GST fusion (mouse, UniProt A0ABA7IW68)
Technique: RNAcompete
Molecule type: RNA
Medium: in vitro
Tested at: 20 nM
Setting: 7-mer, probes averaged, single round
Baseline: mean of 7-mers
Direction: higher = stronger binding
Construct (chain): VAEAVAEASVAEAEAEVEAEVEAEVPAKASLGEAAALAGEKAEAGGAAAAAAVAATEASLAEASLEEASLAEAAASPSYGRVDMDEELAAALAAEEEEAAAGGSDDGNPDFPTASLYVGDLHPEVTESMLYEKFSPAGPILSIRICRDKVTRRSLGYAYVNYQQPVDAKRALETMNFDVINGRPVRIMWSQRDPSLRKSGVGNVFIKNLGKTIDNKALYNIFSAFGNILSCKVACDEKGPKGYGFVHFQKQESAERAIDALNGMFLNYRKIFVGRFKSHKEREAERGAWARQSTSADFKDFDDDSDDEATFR
Sequence	7-mer Z-score
GGAUUAA	0.144
AGUGCCA	-0.00652
CUUGUUC	-0.508
AUGCCUA	-0.202
CGGUAAC	-0.166
CCCAGUC	-0.364
CAUUAAU	-0.249
GAGGGAC	0.216
AAGCUGC	0.218
UAUGCGG	0.0442
UGAAAUG	-0.0699
UAUAGAC	-0.101
AGAUUCG	-0.42
UUAGCAU	-0.18
AUUAGGA	0.195
AUCAAGC	-0.0264
AAACUCG	0.579
UUUACAC	-0.173
AGUGAGA	-0.0464
UCGGCGU	-0.293
AGACGGG	-0.144

Sample 2
Target: RNA binding protein fox-1 homolog 2, RRM domain, GST-SBP tag (RBFOX2, Homo sapiens, UniProt O43251-10, residues 100-194)
Technique: RNA Bind-n-Seq
Molecule type: RNA
Medium: in vitro
Tested at: 365 nM
Setting: natural RNA segment, single round, ends assumed
Baseline: no-protein control
Direction: higher = stronger binding
Shared flanks, not repeated: GGGAGUUCUACAGUCCGACGAUC … UGGAAUUCUCGGGUGCCAA
Target sequence (chain): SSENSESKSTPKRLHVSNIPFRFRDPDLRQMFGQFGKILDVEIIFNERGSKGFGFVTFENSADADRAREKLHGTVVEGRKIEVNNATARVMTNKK
Sequence	RBNS enrichment (R)
UUUUAGGUAAACAUGACAUGACAUGUACUUGUAAUAUCAGUGAAAGGGGCUUUUAGUCGUCUCAGUAUCUUUUUUGCAUUCAGGUAUUAUAGCGUUUCCAACAAAUUGAG	1.28
GUUCUUUCACAUUUGCCCCAGCAAAACCCCAUCUAACACAACUGACUUUCCAAAGAACCCUUAAGUUUCCAUUUCCCAGUGGCAAUAACUGUGACCUGAUCCCUACCCCA	0.577
GUUUUUUUCAUUCCAUGUGCCCAGUUAAUCUUGCUUUCUUUGUUUGGCUGGGAUAGAGGGGUCAAGUUAUUAAUUUCUUCACACCUACCCUCCUUUUUUUCCCUAUCACU	1.38
GGCACAUAUGUUGUAUUGCAAAGCAUAUUUGGCAAGCAGUUCAUCACCAAGGCAGUAGCUAUGAUUCUAGAAGCUAAGAGGUGUCUAUAGAGCUAGACGGGCUUCUGCAU	0.977
ACAGAGUUACAGAUACACAAUCAAGAGUGUUCUUGCUGAUGCUCGGGGUCUGAAGACUGUCUUCCUAUCUGCUUCUUGCGGCUGAGGAGAGGAGCAGUUCAGUUUACAAA	0.696
AAAGACUAUUAAUCCCUCCAGCCUGAUGACCAGUUCUCAGCUGUGGUGUGGCAGCUGAGGAAUUGGGUUUCGGGGAGAGUGACUUUUUAAAAAGGACUUAAUUUCUACUA	0.674
GCCACCGUGGGACAUCAAGUGGAAGAACUUGUUUGCUUGAAAGUAUCUCAGACCCAAGGCACCUCAGGUCUCUUUGCUGUGCCUCCACUAUAUUGUCGUGUGGGUGUGUG	0.481
GCUCAAAGGCACCUUUGCUUUUGUGAACUCGUUCACCCUAUCCUGUCUCCCCCAGGAUUGCCCCCCUCUCCCCUCACCCCCACAGCAUGCUGUAUUAGAUGCUCACAUUC	1.68
CGGGCGUGGUGGCUCAUGCCUAUAAUCCCAGCACUUUGGGAGGCCAAGCGGGGGCGGAUCACGAGGUCAGGAGAUUGAGACCAUCCUGGCUAACACGGUGAAACCCCAUC	0.324
UGUGAGAAGUCACUCACACUGGCCACAAGGACGCUGGCUACUGUCUAUUAAAAUUCUGAUGUUUCUGUGAAAUUCUCAGAGUGUUUAAUUGUACUCAAUGGUAUCAUUAC	0.217
UACUGAAGUCUCUGCUUUCUGUCAGAAUCAACCACCGACCUUGUGCUGCAUUGGAGAUCACAUCCUUUCCCUGUGUUGCCCCCAUUUCUCUGCUGCUUCUCUGGCUUGUU	0.404
UGUAAGAGCACCAAUAGGUCCUAGUCUAGCUGAGGUCCAGAUCUAUGCCAUGCUGGGGUGACAUUUUAGAGACUGACCGAAAUAGGUGAGACCCUGCCUGUAUUCAGAAA	0.644

Sample 3
Target: Histone acetyltransferase KAT6A, winged helix 2, GST fusion (KAT6A, Homo sapiens, UniProt Q92794, residues 85-181)
Technique: protein binding microarray
Molecule type: double-stranded DNA, one strand shown
Medium: in vitro
Tested at: not given
Setting: 8-mer, flanks averaged, mean of 2 arrays, mostly near background
Baseline: not given
Direction: higher = stronger binding
Residues (chain): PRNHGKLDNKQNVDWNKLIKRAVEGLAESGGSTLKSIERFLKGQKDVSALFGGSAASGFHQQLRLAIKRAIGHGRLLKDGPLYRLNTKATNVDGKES
Sequence	E-score
ATCATTTG	-0.0652
TAGTCTCA	-0.147
AACTTATT	-0.0174
CTGGGCTA	-0.0675
AGGATTGA	-0.0108
CAGAAACG	0.182
CTCAAAAG	0.00298
AGTAGTAA	-0.197
TCTGGCAA	-0.0217
CATCGTGA	-0.021
CTAAATCA	-0.0359
ATATGACC	-0.118
CCGACGCA	0.176
AGGAAAAG	0.12
CGGGAGAA	0.127
AACCCGTG	-0.0428

Sample 4
Target: Ras GTPase-activating protein-binding protein 1, full length (G3BP1, Homo sapiens, UniProt Q13283)
Sequence of UniProt Q13283 (whole entry, looked up): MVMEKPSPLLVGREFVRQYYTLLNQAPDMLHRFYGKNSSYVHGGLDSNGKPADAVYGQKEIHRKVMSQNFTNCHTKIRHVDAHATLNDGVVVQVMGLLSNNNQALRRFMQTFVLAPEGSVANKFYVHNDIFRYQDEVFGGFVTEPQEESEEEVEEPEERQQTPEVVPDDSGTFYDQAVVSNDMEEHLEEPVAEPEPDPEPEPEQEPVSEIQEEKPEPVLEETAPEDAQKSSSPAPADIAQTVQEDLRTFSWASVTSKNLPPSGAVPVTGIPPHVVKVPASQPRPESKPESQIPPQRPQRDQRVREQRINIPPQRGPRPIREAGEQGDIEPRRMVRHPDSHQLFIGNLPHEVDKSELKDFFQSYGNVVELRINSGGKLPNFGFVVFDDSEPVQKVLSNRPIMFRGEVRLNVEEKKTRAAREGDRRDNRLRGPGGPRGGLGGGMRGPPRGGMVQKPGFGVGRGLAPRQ
Technique: RNA Bind-n-Seq
Molecule type: RNA
Medium: in vitro
Tested at: 200 nM
Setting: whole 134-nt RNA, ends assumed
With: 150 mM KCl
Baseline: input library
Direction: higher = stronger binding
Shared flanks, not repeated: GGGAGUUCUACAGUCCGACGAUC … UGGAAUUCUCGGGUGUCAAGG
Sequence	log2 enrichment
CUGUGCUACACAUCGUAUGUACCGAAUCGGGGAAAAAGGGGAAAAAAAGGGGUUUUUGGGGAAAGUAUUAUGUUACGCCGUUCGGAUCUG	0.0369
CACAGAGAACACGCACCCACACAGACACAGAGGGAAGGGGUUGGGAUGGGGACAGGGUGCACAGCAGGGCGGGGUAGGACCCCAGCCCCU	1.63
CACAGACAACACGCGCCCACACAGACACAGAGGGAAGGGGUUGGGAUGGGGACAGGGUGCACAGCAGGGCGGGGUAGGACCCCAGCCCCU	1.86
UAACUUUAGGGGAGGAUCUGAUGGAUAUGGCAGUGGACGUGGAUUUGGGGAUGGCUAUAAUGGGUAUGGAGGAGGACCUGGAGGUGGCAA	0.614
GCAGGAAGUAAAAACAAAUGGAAGUGCUUCGGAUAGUGGCAGGGGUGGGGGUUGCUAAGGAAAGGGUGGGAUGGGAGUGGGUAAAGAGUU	1.43
CCUGUGCUACACAUCGUAUGUACCGAAUCGGGUUUUUUUGGGAAAAAGGGAAAAAAAGGGAAAGUAUUAUGUUACGCCGUUCGGAUCUGC	-1.02
CCUCAAGUCCUGUGCUACACAUCGUAUGUACCGAAUCGGGGUGGGGUGGGUGGAAAGUAUUAUGUUACGCCGUUCGGAUCUGCACUUCCA	1.34
UCAAGUCCUGUGCUACACAUCGUAUGUACCGAAUCGGCCCGGGCCCGGCCCGGGAAAGUAUUAUGUUACGCCGUUCGGAUCUGCACUUCC	-1.01
CACAGACAACACGCACCCACCCAGACACAGAGGGAAGGGGUUGGGAUGGGGACAGGGUGCACAGCAGGGCGGGGUAGGACCCCAGCCCCU	1.94
UAACUUUAGAGGAGGAUCUGAUGGAUAUGGCAGUGAACGUGGAUUUGGGGAUGGCUAUAAUGGGUAUGGAGGAGGACCUGGAGGUGGCAA	0.324
UCCUCAAGUCCUGUGCUACACAUCGUAUGUACCGAAUCGGCGGGGCGGGCGGAAAGUAUUAUGUUACGCCGUUCGGAUCUGCACUUCCAG	-0.0846
UGGGAGGUGGAUUUUGUUUAUUUUUUUAGCUCAUUUCCAGGGGUGGGAAUUUUCUUUUAAUAUGUGUCAUGAAUAAAGUUGUUUUUGAAA	0.133
UAACUUUAGAGGAGGAUCUGAUGGAUAUGGCAGUGGACGUGCAUUUGGGGAUGGCUAUAAUGGGUAUGGAGGAGGACCUGGAGGUGGCAA	0.0413
GCAGGAAGUAAAAACAAAUGGAAAUGCUUCGGAUAGUGGCAGGGGUGGGGGUUGCUAAGGAAAGGUUGGGAUGGGAGUGGGUAAAGAGUU	0.682

Sample 5
Target: Interferon regulatory factor 3, full length, phosphomimetic (IRF3, Homo sapiens, UniProt Q14653, residues 1-427, S386D/S396D/S398D/S402D/T404D/S405D)
Sequence of UniProt Q14653 (whole entry, unmodified, looked up): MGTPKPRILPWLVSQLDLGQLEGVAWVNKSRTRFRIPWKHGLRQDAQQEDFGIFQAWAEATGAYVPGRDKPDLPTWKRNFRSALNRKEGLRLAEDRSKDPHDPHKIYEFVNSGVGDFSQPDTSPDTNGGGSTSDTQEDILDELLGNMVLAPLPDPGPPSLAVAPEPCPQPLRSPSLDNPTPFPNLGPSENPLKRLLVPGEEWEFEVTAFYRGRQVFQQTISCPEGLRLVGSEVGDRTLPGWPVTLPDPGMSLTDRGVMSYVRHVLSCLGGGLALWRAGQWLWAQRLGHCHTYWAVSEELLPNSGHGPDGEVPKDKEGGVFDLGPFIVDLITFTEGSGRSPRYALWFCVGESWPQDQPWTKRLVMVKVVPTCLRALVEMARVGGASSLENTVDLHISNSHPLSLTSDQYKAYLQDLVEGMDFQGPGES
Technique: protein-binding microarray
Molecule type: double-stranded DNA, one strand shown
Medium: in vitro
Tested at: 2540 nM top
Setting: 60-bp whole probe
With: salmon DNA 0.4 mg/ml
Baseline: random background probes
Direction: higher = stronger binding
Shared flanks, not repeated: GCCTAGCAC … GTCTTGATTCGCTTGACGCTGCTG
Sequence	fitted relative affinity [z-score]
TTGCTTCTATAGGCTAGAATCGTGCTA	-0.297
GACGGTTTCGGTCTCGTGACGTGCTAG	8.83
TTAGATCTCGGTCTCGGTTAGTGCTAG	0.61
CATATTCTCTTCTTGCATCTGTGCTAG	2.64
GACGCTCTCGGTCTCGGGACGTGCTAG	0.302
TGAGGTTTCGGACTGGGTTAGTGCTAG	3.56
TTAGGTATCGGTAACGGTTAGTGCTAG	1.72
CTTTCTGTCAGTTTTGAGCTGTGCTAG	5.01
GACCGACTGCTTATCCTGACGTGCTAG	-0.0366
TTAGATTCCAGTTGCGATTAGTGCTAG	2.48
TCACTTCCCCATCTTGTACTGTGCTAG	2.74
TTGGGTTTCCTTTCCCTTTAGTGCTAG	9.51
GACGATCTCAGTATCTAGACGTGCTAG	0.661
TCATTTTTTTTTCTACTACTGTGCTAG	1.69
TGTGAAACCTTCAGGCACGTGTGCTAG	0.254
GACGGTTTCCTTTCCTTGACGTGCTAG	9.67

Some of these lines once more (sample 1):
Sequence	7-mer Z-score
GAGGGAC	0.216
AAGCUGC	0.218
UAUGCGG	0.0442
UGAAAUG	-0.0699
UAUAGAC	-0.101
AGAUUCG	-0.42
UUAGCAU	-0.18
AUUAGGA	0.195
AUCAAGC	-0.0264
AAACUCG	0.579
UUUACAC	-0.173
AGUGAGA	-0.0464
